# Measured values collected from several papers.
# Compare with care: the assays were run in different laboratories.
# FLT3 D835Y: Receptor-type tyrosine-protein kinase FLT3 (FLT3, Homo sapiens, UniProt P36888, D835Y)
# FLT3 N841I: Receptor-type tyrosine-protein kinase FLT3 (FLT3, Homo sapiens, UniProt P36888, N841I)
# FLT3: Receptor-type tyrosine-protein kinase FLT3 (FLT3, Homo sapiens, UniProt P36888)
Structure (SMILES),target,test,conditions,how to read,remaining binding [%]
C=CC(=O)N1CCCC(n2c(=O)c3ncccc3n(Cc3ccc(Oc4ccccc4)cc3)c2=O)C1 (centres unmarked),FLT3 D835Y,"binding, competition with immobilised ligand",1 µM,,100
Nc1ncc2c(n1)-c1c([nH]c3ccc(C4=CCOCC4)cc13)CCC2,FLT3 D835Y,"binding, competition with immobilised ligand",1 µM,,100
CNC1C[S+]2CC[S+]3CC[S+](C1)[Ru-4]321([N]=C=S)[n]2c3ccc(OC)cc3c3c4c(c5cc(F)c[n+]1c5c32)C(=O)NC4=O (centres unmarked),"Receptor-type tyrosine-protein kinase FLT3, autoinhibited (FLT3, Homo sapiens, UniProt P36888)",KinomeScan,0.1 µM,relative to: untreated,100
CCN1CCN(Cc2ccc(NC(=O)c3ccc(C)c(NC(=O)c4cncc(-c5cccs5)c4)c3)cc2C(F)(F)F)CC1,"Receptor-type tyrosine-protein kinase FLT3 (FLT3, Homo sapiens, UniProt P36888, D835H)","binding, competition with immobilised ligand",1 µM,,3.2
CNC(=O)C1CCN(c2cc(C)c(F)cc2NC(=O)c2ccc(-c3cc(O)ccc3C)c(C)c2)CC1,FLT3 N841I,"binding, competition with immobilised ligand",1 µM,,100
COc1c(Cl)cccc1Nc1c(-c2ccncc2C#C[C@@]2(C)CCCN2C(=O)/C=C/CN(C)C)[nH]c2c1C(=O)NCC2,FLT3 N841I,"binding, competition with immobilised ligand",3 µM,,92
Cc1cnc2nc1Nc1cccc(c1)COC/C=C/COCc1cc(ccc1OCCN1CCOCC1)N2,"Receptor-type tyrosine-protein kinase FLT3 (FLT3, Homo sapiens, UniProt P36888, K663Q)",binding,0.1 µM,,1
C=CC(=O)N1CCc2ccc(-n3c(=O)ccc4cnc5ccc(-c6cnn(C)c6)cc5c43)cc21,FLT3,KINOMEscan,1 µM,relative to: DMSO control,98
CN1CCN(Cc2ccc(NC(=O)c3cccc(C#Cc4cnc(N)c5ncccc45)c3)cc2C(F)(F)F)CC1,FLT3,"cell-free assay, competition with immobilised ligand",50 nM,,5.1
CC(C)=CC1OC(C)(C)C2C=C3C(=O)C(Cl)=CC(O)C3C3C(O)C4OC4C(=O)C132 (centres unmarked),"Receptor-type tyrosine-protein kinase FLT3 (FLT3, Homo sapiens, UniProt P36888, R834Q)","cell-free assay, competition with immobilised ligand",10 µM,,100
CC(=O)N1c2ccc(-c3ccc(CNC(=O)c4cn5cc(-c6cnc(N)nc6)nc(N6CCOCC6)c5n4)cc3)cc2CC[C@@H]1C,FLT3,KINOMEscan,10 µM,,98
Cc1ccc(-c2c(/C=C(\C#N)C(=O)NC(C)C)n(CCCO)c3ncnc(N)c23)cc1,FLT3 N841I,"cell-free assay, competition with immobilised ligand",1 µM,,71
CCN1CCN(Cc2ccc(C(=O)Nc3ccc(C)c(NCc4cnc5[nH]ccc5c4OC)c3)cc2C(F)(F)F)CC1,FLT3 D835Y,"binding, competition with immobilised ligand",1 µM,,17
CNS(=O)(=O)Nc1nccc(Cc2c(C)c3ccc(Oc4ncccc4F)cc3oc2=O)c1F,FLT3,"binding, competition with immobilised ligand",10 µM,,100
